# Published values of several laboratories.
# ± marks the error that the study gave.
Structure (SMILES),cell line,read-out,method,time,CC50
COC(=O)Nc1nc2ccc(C(=O)c3cccs3)cc2[nH]1,HepG2-NTCP,viability,,,> 25 µM
COc1cccc(-c2nc(C)c(C(=O)Nc3cccc(C(F)(F)F)c3)s2)c1,HEK-293T,cell growth or viability,MTS,72 h,> 300 µM
COC(Cn1ccn2cc(C(=O)NCc3ccc(F)cc3F)c(=O)c(O)c2c1=O)OC,HOS,cell growth or viability,,48 h,> 250 µM
Nc1ccc(-c2nnn(C34CC5CC(CC(C5)C3)C4)n2)cc1Cl,MDCK,,MTT,72 h,< 3 µg/mL
O=c1[nH]c(=O)n([C@H]2C[C@H](O)[C@@H](CO)O2)cc1F,HepG2-NTCP,viability,,,> 25 µM
O=C(NCc1c(F)cc(F)cc1F)c1cn2c(c(O)c1=O)C(=O)N1[C@H]3CC[C@H](C3)O[C@@H]1C2,HOS,cell growth or viability,,48 h,> 250 µM
COc1cccc(-c2nc(C)c(C(=O)Nc3cc(OC)c(OC)c(OC)c3)s2)c1,HEK-293T,cell growth or viability,MTS,72 h,> 300 µM
CC[C@H](C)C(=O)O[C@H]1CCC=C2C=C[C@H](C)[C@H](CC[C@@H]3C[C@@H](O)CC(=O)O3)[C@H]21,HepG2-NTCP,viability,,,> 25 µM
COc1cccc(-c2nc(C)c(C(=O)Nc3ccccc3)s2)c1,HEK-293T,cell growth or viability,MTS,72 h,> 300 µM
C[C@H]1CO[C@@H]2Cn3cc(C(=O)NCc4ccc(F)cc4F)c(=O)c(O)c3C(=O)N12,HOS,cell growth or viability,,48 h,> 250 µM
Nc1cc(-c2nnn(C34CC5CC(CC(C5)C3)C4)n2)ccc1O,MDCK,,MTT,72 h,36 ± 2 µg/mL
COc1cccc(-c2nc(C)c(C(=O)Nc3ccc(Oc4ccccc4OC)cc3)s2)c1,HEK-293T,cell growth or viability,MTS,72 h,> 300 µM
Cc1c(C(=O)NN2CCCCC2)nn(-c2ccc(Cl)cc2Cl)c1-c1ccc(Cl)cc1,HepG2-NTCP,viability,,,> 25 µM
COC(CN1CCn2cc(C(=O)NCc3ccc(F)cc3F)c(=O)c(O)c2C1=O)OC,HOS,cell growth or viability,,48 h,> 250 µM
Nc1ncn([C@H]2C[C@H](O)[C@@H](CO)O2)c(=O)n1,HepG2-NTCP,viability,,,> 25 µM
COc1cc(NC(=O)c2sc(-c3cccc(OC)c3)nc2C)cc(OC)c1,HEK-293T,cell growth or viability,MTS,72 h,> 300 µM

# Some of these lines once more:
Structure (SMILES),cell line,read-out,method,time,CC50
COC(=O)Nc1nc2ccc(C(=O)c3cccs3)cc2[nH]1,HepG2-NTCP,viability,,,> 25 µM
COC(CN1CCn2cc(C(=O)NCc3ccc(F)cc3F)c(=O)c(O)c2C1=O)OC,HOS,cell growth or viability,,48 h,> 250 µM
